Measured values collected from several papers.
Each numbered part is a random draw from the data of one study; scales do not carry over between parts. Substitutions count along the parent as printed.

Set 1
Target: Ras GTPase-activating protein-binding protein 1, full length (G3BP1, Homo sapiens, UniProt Q13283)
UniProt Q13283, sequence (whole entry, looked up): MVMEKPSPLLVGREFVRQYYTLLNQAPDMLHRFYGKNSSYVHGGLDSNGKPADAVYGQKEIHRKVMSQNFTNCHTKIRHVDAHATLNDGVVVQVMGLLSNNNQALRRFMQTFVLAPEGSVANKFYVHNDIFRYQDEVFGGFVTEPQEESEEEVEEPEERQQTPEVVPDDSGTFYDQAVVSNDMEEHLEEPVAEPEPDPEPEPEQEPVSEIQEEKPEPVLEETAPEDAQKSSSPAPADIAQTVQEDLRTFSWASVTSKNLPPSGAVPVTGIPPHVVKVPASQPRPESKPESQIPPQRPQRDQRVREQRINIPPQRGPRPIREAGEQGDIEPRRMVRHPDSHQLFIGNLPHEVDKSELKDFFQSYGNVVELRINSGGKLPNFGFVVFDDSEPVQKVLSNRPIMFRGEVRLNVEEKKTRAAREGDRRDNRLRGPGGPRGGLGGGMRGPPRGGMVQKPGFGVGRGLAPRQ
Technique: RNA Bind-n-Seq
Form: RNA
Matrix: in vitro
Concentration: 200 nM
Notes: whole 134-nt RNA, ends assumed
Added: 150 mM KCl
Baseline: input library
Reading: higher = stronger binding
Shared flanks, not repeated: GGGAGUUCUACAGUCCGACGAUC … UGGAAUUCUCGGGUGUCAAGG
Strand	log2 enrichment
CACAGACAACACGCACCCACACAGACACAGAGGGAAGGGGUUGGGAUGGGGACAGGGUGCACAGCAGGGUGGGGUAGGACCCCAGCCCCU	1.82
CCUGUGCUACACAUCGUAUGUACCGAAUCGGGUUUUUUUGGUUUUUUUGGGUUUUUUUGGAAAGUAUUAUGUUACGCCGUUCGGAUCUGC	-0.847
GCAGGAAGUAAAAACAAAUGGAAAUAAAUCGGAUAGUGGCAGGGGUGGGGGUUGCUAAGGAAAGGGUGGGAUGGGAGUGGGUAAAGAGUU	0.96
AAGUCCUGUGCUACACAUCGUAUGUACCGAAUCGGUUUUUUUGGUGGUUUUUUUGGAAAGUAUUAUGUUACGCCGUUCGGAUCUGCACUU	-1.36
UGUCUGCGGACCUGGUUUCAGCGCUGGUGGGACUGCAGCCGGAGGUCAGCCCAGCAGAGACUGCAGCUGGAGAGGGCAGUGCAACACCAC	-1.09
GCAGGAAGUAAAAACAAAUGGAAAUGCUUCGGAUAGUGGCAGGGGUGGGGGCUGCUAAGGAAAGGGUGGGAUGGGAGUGGGUAAAGAGUU	1.18
CCUCAAGUCCUGUGCUACACAUCGUAUGUACCGAAUCGGGAGGGGAGGGAGGGAAAGUAUUAUGUUACGCCGUUCGGAUCUGCACUUCCA	1.53
GCAGGAAGUAAAAACAAAUGGAAAUGCUUCGGAUAGUGGCAGGGGUGGGGGUAAAUAAGGAAAGGGUGGGAUGGGAGUGGGUAAAGAGUU	0.821

Set 2
Target: Histone acetyltransferase KAT6A, winged helix 1, GST fusion (KAT6A, Homo sapiens, UniProt Q92794, residues 1-85)
Technique: protein binding microarray
Form: double-stranded DNA, one strand shown
Matrix: in vitro
Concentration: not given
Notes: 8-mer, flanks averaged, mean of 2 arrays, mostly near background
Baseline: not given
Reading: higher = stronger binding
Construct (chain): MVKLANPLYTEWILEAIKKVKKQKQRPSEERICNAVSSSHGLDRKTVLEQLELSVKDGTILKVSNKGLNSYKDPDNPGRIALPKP
Strand	E-score
GGCAGTGA	-0.0385
CATAAGGC	0.0206
CCTTGCCC	-0.0599
AGAAGCGG	0.186
ATGACGTA	-0.202
CACAGAAA	-0.156
CGGACCTC	0.166
CCTCCGAG	0.0393
ATCACTGA	-0.0928
AAAACGAG	-0.113
GAGCGAGA	0.0203
ATAAGTTG	-0.247

Set 3
Target: CCNB2, cyclin fold, Cln2 fusion (human)
Technique: yeast growth competition, sequencing
Matrix: yeast
Notes: weak parent motif
Baseline: not given
Reading: higher = stronger binding
Starting sequence: ORC1 docking peptide (human); PRARKRLELGNLG
Change	normalised enrichment score
G13F	0.488
R2S	-0.0385
G13Q	-0.254
L9W	0.26
G13N	0.0519
L9R	0.883
L7D	0.444

Further values, each from its own experiment
Molecule	target	assay	system	setting	how to read	quantity	result
PhoQ, residues 284 288 289 292 302 303 GANMMA	PhoP, residues 12 14 15 18 19 NYFTV (Escherichia coli, UniProt P23836)	Sort-seq, refers to: YFP reporter	E. coli	PhoQ-PhoP variant library, added: 10 µM Mg2+	baseline: high Mg2+ state, higher = stronger signaling	fold induction	1.72

Excerpt of the above (set 1):
Strand	log2 enrichment
GCAGGAAGUAAAAACAAAUGGAAAUGCUUCGGAUAGUGGCAGGGGUGGGGGCUGCUAAGGAAAGGGUGGGAUGGGAGUGGGUAAAGAGUU	1.18
GCAGGAAGUAAAAACAAAUGGAAAUAAAUCGGAUAGUGGCAGGGGUGGGGGUUGCUAAGGAAAGGGUGGGAUGGGAGUGGGUAAAGAGUU	0.96
